Experimental data of several laboratories.
Compare with care: the assays were run in different laboratories. ± gives the spread as reported.
Cell line: MOLT-4

Structure (SMILES) | test | system | setting | scale | endpoint | value
Cc1n[nH]c2nc(-c3ccc(Cl)cc3)c3c(NC(=O)c4ccccc4)nnc-3n12 | SRB |  | 10 µM, NCI60 single-dose screen | relative to: untreated | cell growth | 105%
COc1ccccc1C(=O)c1cc2c(-c3ccccc3)c(OC)ccc2o1 | cell proliferation |  | 72 h |  | IC50 | > 50 µM
Cc1cc(-c2ccccc2)n(-c2nc(-c3ccc(Cl)cc3)c3c(NC(=O)c4ccccc4)nnc-3[nH]2)n1 | SRB |  | 10 µM, NCI60 single-dose screen | relative to: untreated | cell growth | 97.4%
CCCN1CCN(c2ccc3[nH]c(-c4ccc5[nH]c(-c6ccc(OCC)c(OCC)c6)nc5c4)nc3c2)CC1 | SRB |  | 10 µM, 48 h |  | growth percent | 3.28%
O=C1NCCc2[nH]c(-c3ccncc3)cc21 | cytotoxicity, MTS | NCI60 panel | acute lymphoblastic leukaemia |  | IC50 | 6.98 µM
CCn1cc(-c2cc(Cn3ccnc3)cc3c2CCN([C@H](c2cc(OC)ccn2)C2CC2)C3=O)c(C(F)(F)F)n1 | cell growth, inhibitor |  | 120 h |  | EC50 | 12.3 µM
CCCCN1CCN(c2ccc3[nH]c(-c4ccc5[nH]c(-c6cc(OC)c(OC)c(OC)c6)nc5c4)nc3c2)CC1 | SRB |  | 10 µM, 48 h |  | growth percent | 47%
COc1ccc(C(=O)c2cc3c(-c4ccccc4)c(O)ccc3o2)cc1 | cell proliferation |  | 72 h |  | IC50 | 0.69 ± 0.61 µM
C#C[C@@]1(O)[C@@H](CO)O[C@@H](n2ccc3c(N)ncnc32)[C@@H]1O | SRB |  | NCI-60 screen |  | TGI | > 100 µM
COc1ccc2oc(C(=O)c3ccccc3)cc2c1-c1ccccc1 | cell proliferation |  | 72 h |  | IC50 | > 50 µM
CCCCN1CCN(c2ccc3[nH]c(-c4ccc5[nH]c(-c6ccc(OCC)cc6)nc5c4)nc3c2)CC1 | SRB |  | 10 µM, 48 h |  | growth percent | 56.9%
O=C(Nc1nnc2n3c(=S)[nH][nH]c3nc(-c3ccc(Cl)cc3)c1-2)c1ccccc1 | SRB |  | 10 µM, NCI60 single-dose screen | relative to: untreated | cell growth | 101%
COc1cccc(C(=O)c2cc3c(-c4ccccc4)c(O)ccc3o2)c1 | cell proliferation |  | 72 h |  | IC50 | 47 ± 14 µM
Cc1cc(=O)[nH]c(=O)n1Cc1cn(-c2cc3ccccc3oc2=O)nn1 | NCI60 single-dose screen |  | 10 µM |  | growth percentage | 109%
CSc1nc(-c2ccc(Cl)cc2)c2c(NC(=O)c3ccccc3)nnc-2[nH]1 | SRB |  | 10 µM, NCI60 single-dose screen | relative to: untreated | cell growth | 99.1%
CCCC(CCC)C(=O)OCc1cn(-c2c3ccccc3nc3ccccc23)nn1 | NCI60 single-dose screen |  | 10 µM |  | growth percentage | 86.7%
CCCN1CCN(c2ccc3[nH]c(-c4ccc5[nH]c(-c6ccc(C(F)(F)F)cc6)nc5c4)nc3c2)CC1 | SRB |  | 10 µM, 48 h |  | growth percent | -38.6%

Repeated from above:
Structure (SMILES) | test | system | setting | scale | endpoint | value
CCCN1CCN(c2ccc3[nH]c(-c4ccc5[nH]c(-c6ccc(OCC)c(OCC)c6)nc5c4)nc3c2)CC1 | SRB |  | 10 µM, 48 h |  | growth percent | 3.28%
O=C1NCCc2[nH]c(-c3ccncc3)cc21 | cytotoxicity, MTS | NCI60 panel | acute lymphoblastic leukaemia |  | IC50 | 6.98 µM
